Measurements collected from several papers.
Protocols differ between the studies behind these lines. ± marks the error that the study gave.

Compound = CN(C)C(CNC(=O)Nc1cc(C(F)(F)F)ccc1N1CCOCC1)c1ccncc1 (stereo not drawn); test system = mouse, serum; setting = intraperitoneal, 240 mg/kg single dose; quantity = serum alkaline phosphatase; result = 75 U/L
Compound = O=C(NCCCCCCCCn1ccc2ccccc21)Oc1ccccc1; test system = rat liver S9 fraction; setting = 30 min, with: NADPH; quantity = parent remaining; result = 49 ± 1%
Compound = CC[C@H](C)C(=O)N1CCC(NC(=O)Nc2ccc(OC(F)(F)F)c(F)c2)CC1; test system = healthy volunteers, both sexes; setting = oral, 8 mg single dose, fasted state; quantity = participants with any Serious TEAE; result = 0%
Compound = COc1ccc(NC(=O)Cn2c(=O)c3ccccc3n(CC(=O)Nc3cc([125I])c(OC)cc3OC)c2=O)cc1; test system = rat, spleen; setting = intravenous, 30 min; quantity = tracer uptake; result = 0.06 %ID/g
Compound = Cc1ccc(/C=C/C(=O)O)cc1-c1cc2c(cc1C)C(C)(C)CCC2(C)C; test system = Sprague-Dawley rat, male, plasma; setting = oral, 100 mg/kg, 9 h, sesame oil vehicle; quantity = HDL level; result = 56 ± 11.6 mg/dL
Compound = CCCCCCCC(=O)NCCCC[C@H](NC(=O)[C@H](Cc1ccccc1)NC(=O)[C@@H](CCCNC(=N)N)NC(=O)[C@@H](N)Cc1ccc(O)cc1)C(N)=O; test = LC-MS/MS; test system = CD-1 mouse, male, plasma; setting = intravenous, 3 mg/kg; quantity = AUC(0-inf); result = 1050 ng·h/mL
Compound = COc1cc(NC(=O)C(=O)c2c(C)n(Cc3ccc(Cl)cc3)c3ccc(C)cc23)ccn1; test system = cynomolgus monkey, plasma; setting = intravenous, 1 mg/kg; quantity = C0; result = 2370 ng/mL
Compound = CCCCCCCCCCCCC(=O)O.O=C1CCCC2C3CCCN4CCCC(CN12)C34 (stereo not drawn); test = shake-flask; test system = simulated gastric fluid; setting = pH 1.2, 37 °C; quantity = log octanol-water partition coefficient; result = -0.33
Compound = O=C1Cc2cc(CCN3CCN(C4=NS(=O)(=O)c5ccccc54)CC3)c(Cl)cc2N1; test system = human liver microsomes; setting = 1 µM, 30 min, 0.5 mg/mL protein; quantity = percent metabolized; result = 0%
Compound = C/C=C/C=C/C/C=C/CCCCCCCc1cccc(O)c1O; test system = male Wistar rat, plasma; setting = intravenous, 20 mg/kg; quantity = MRT; result = 2.88 h
Compound = COc1cc2ncnc(Oc3cccc(N[11C](=O)Nc4cc(C(C)(C)C(F)(F)F)on4)c3)c2cc1OC; test system = female Balb/c nude mice, urine; setting = intravenous, dose not given, 30 min; quantity = radioactivity; result = 6.34 ± 0.78 %ID/g
Compound = C[C@]12CC[C@H](O)CC1CCC1C2[C@H](O)C(=O)[C@]2(C)[C@@H](c3ccc(=O)oc3)CC[C@]12O (stereo partly drawn); test = sulfation, substrate; test system = rat liver cytosol; setting = pH 7.4; quantity = CLint; result = 0.14 µL/min/mg
Compound = C1=C(c2cc3c(Nc4ccc5scnc5c4)ncnc3s2)CCNC1; test system = BALB/c mouse, plasma; setting = oral, 10 mg/kg, 2 h; quantity = concentration; result = 433 ng/mL
Compound = CC[C@H](C)[C@H](NC(=O)[C@H](CC(=O)O)NC(=O)[C@H](CO)NC(=O)[C@H](CCC(N)=O)NC(=O)[C@H](C)NC(=O)[C@H](CC(=O)O)NC(=O)[C@H](CCC(=O)O)NC(=O)[C@H](Cc1c[nH]cn1)NC(=O)[C@H](Cc1ccc(O)cc1)NC(=O)[C@H](C)NC(=O)[C@H](CC(=O)O)NC(=O)[C@H](CCC(=O)O)NC(=O)[C@H](Cc1c[nH]cn1)NC(=O)[C@H](Cc1ccc(O)cc1)NC(=O)[C@H](C)NC(=O)[C@H](CC(=O)O)NC(=O)[C@H](CCC(=O)O)NC(=O)[C@H](Cc1c[nH]cn1)NC(=O)[C@H](Cc1ccc(O)cc1)NC(=O)[C@H](C)NC(=O)[C@H](CC(=O)O)NC(=O)[C@H](CCC(=O)O)NC(=O)[C@H](Cc1c[nH]cn1)NC(=O)[C@H](Cc1ccc(O)cc1)NC(=O)[C@H](C)NC(=O)[C@H](CC(=O)O)NC(=O)[C@H](CCC(=O)O)NC(=O)[C@H](Cc1c[nH]cn1)NC(=O)[C@@H](N)Cc1ccc(O)cc1)C(=O)N[C@H](C(=O)N[C@@H](C)C(=O)N[C@@H](Cc1c[nH]cn1)C(=O)N[C@@H](CC(C)C)C(=O)N[C@@H](CC(C)C)C(=O)O)C(C)C; test system = normal mouse, blood; setting = dose not given; quantity = LY share of white cells; result = 85.7 ± 3%
Compound = CCCC(=O)OC1O[C@@H]2O[C@@]3(C)CC[C@H]4[C@H](C)CCC([C@H]1C)[C@@]24OO3 (stereo partly drawn); test system = Tg(fli1:EGFP) zebrafish embryos; setting = 10 µg/mL, up to 48 hpf; quantity = dead embryos; result = 3 count
Compound = CC1=C(/C=C/C(=O)N2CCN(C(N)=O)CC2)C(C)(C)CCC1; test system = dog; quantity = tolerability; result = not toxic
Compound = C[C@@H](O)[C@H](NC(=O)[C@H](CCCCN)NC(=O)[C@H](Cc1c[nH]c2ccccc12)NC(=O)CN)C(=O)N[C@@H](CCCNC(=N)N)C(=O)NC(C)(C)C(=O)N[C@@H](CCCNC(=N)N)C(=O)NC(C)(C)C(=O)N[C@H](C(=O)N[C@@H](CO)C(=O)N[C@@H](Cc1c[nH]cn1)C(=O)N[C@@H](Cc1ccc(O)cc1)C(=O)NCC(=O)O)[C@@H](C)O; test system = C57BL/6 mouse, blood; setting = intravenous, 50 mg/kg, 10 h; quantity = haematocrit; result = 35 to 45%
Compound = C[C@@H]1CC[C@H]2[C@@H](C)CO[C@@H]3O[C@@]4(C)CC[C@@H]1[C@]32OO4; test system = male Sprague-Dawley rat, plasma; setting = intravenous, 5 mg/kg; quantity = MRT(0-t); result = 0.323 h
Compound = O=C([O][Ti+2][O]C(=O)c1ccc([P+]([Au-][Cl])(c2ccccc2)c2ccccc2)cc1)c1ccc([P+]([Au-][Cl])(c2ccccc2)c2ccccc2)cc1.c1cc[cH-]c1.c1cc[cH-]c1; test system = C57BL/6 mice, female; setting = subcutaneous, 15 mg/kg/day; quantity = time to death; result = < 24 h
Compound = CC1=CC=c2ccc3c4c2[N]1[Re](=[C]=O)(=[C]=O)(=[C]=O)([C]#[N+]c1ccc(Cl)cc1)[N]4C(C)=CC=3.O=S(=O)([O-])C(F)(F)F; test system = PBS; setting = 10 µM, air-equilibrated; quantity = luminescence lifetime; result = 1.3 µs
Compound = CC(=O)N(O)CCCP(=O)(O)O; test system = Wistar rats; setting = oral, 14 days observation, single dose; quantity = approximate LD50; result = > 3000 mg/kg

Some of these lines once more:
Compound = O=C([O][Ti+2][O]C(=O)c1ccc([P+]([Au-][Cl])(c2ccccc2)c2ccccc2)cc1)c1ccc([P+]([Au-][Cl])(c2ccccc2)c2ccccc2)cc1.c1cc[cH-]c1.c1cc[cH-]c1; test system = C57BL/6 mice, female; setting = subcutaneous, 15 mg/kg/day; quantity = time to death; result = < 24 h
Compound = CC1=CC=c2ccc3c4c2[N]1[Re](=[C]=O)(=[C]=O)(=[C]=O)([C]#[N+]c1ccc(Cl)cc1)[N]4C(C)=CC=3.O=S(=O)([O-])C(F)(F)F; test system = PBS; setting = 10 µM, air-equilibrated; quantity = luminescence lifetime; result = 1.3 µs
